Experimental data gathered from unrelated publications.
Parts stem from different laboratories: compare values within a part only.

Set 1
Target: Interferon regulatory factor 3, full length, phosphomimetic (IRF3, Homo sapiens, UniProt Q14653, residues 1-427, S386D/S396D/S398D/S402D/T404D/S405D)
Chain of UniProt Q14653 (whole entry, unmodified, looked up): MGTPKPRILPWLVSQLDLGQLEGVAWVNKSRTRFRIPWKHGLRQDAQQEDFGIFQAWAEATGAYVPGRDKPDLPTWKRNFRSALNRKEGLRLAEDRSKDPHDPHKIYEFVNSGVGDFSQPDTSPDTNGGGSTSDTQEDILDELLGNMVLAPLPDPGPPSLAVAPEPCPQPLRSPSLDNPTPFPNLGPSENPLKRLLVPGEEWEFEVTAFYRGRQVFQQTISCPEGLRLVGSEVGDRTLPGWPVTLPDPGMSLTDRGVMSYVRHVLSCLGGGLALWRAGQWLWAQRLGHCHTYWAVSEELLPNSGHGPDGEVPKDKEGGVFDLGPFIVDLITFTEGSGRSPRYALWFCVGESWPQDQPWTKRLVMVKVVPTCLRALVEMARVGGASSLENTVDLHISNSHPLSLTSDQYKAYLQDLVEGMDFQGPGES
Technique: protein-binding microarray
Molecule type: double-stranded DNA, one strand shown
Sample: in vitro
Tested at: 2540 nM top
Notes: 60-bp whole probe
Together with: salmon DNA 0.4 mg/ml
Baseline: random background probes
Direction: higher = stronger binding
Constant ends, left off below: GCCTAGCAC … GTCTTGATTCGCTTGACGCTGCTG
Strand | fitted relative affinity
TCACTTTCCACTTGTCTTTTCGTGCTA | 4.6 z-score
AGATCCATGCTCTGTCGCAGGGTGCTA | 0.447 z-score
ATATGTATATATGTGTATATGTGCTAG | 0.561 z-score
TGAGGACTGCTACTGCTTTAGTGCTAG | -1.03 z-score
GTCGGACTGGGTCTCGGGACGTGCTAG | -0.349 z-score
TTAGGACTGGACTTGCGGTTAGTGCTA | -0.305 z-score
GACGGTTTCGGTTTCGGCACGTGCTAG | 10.6 z-score
TGGAGAGTAGCTTTCTGAGGGTGCTAG | -0.684 z-score
GGGCCACAAAGCAATAAGAAGTGCTAG | -0.618 z-score
GACGATATCAGACCGGAGACGTGCTAG | 0.191 z-score
TTAGGTTTCGGCTTCGGTTAGTGCTAG | 3.5 z-score
GACGATTTCGGGTTTCGAGATGTGCTA | 2.88 z-score
GACGACTTCGGGTATCGAGACGTGCTA | -0.265 z-score
TCATGTTTCTCAAATGTTACTGTGCTA | 0.84 z-score
TTAGGACTGGGATATCGGTTAGTGCTA | -0.505 z-score
TCAGGTCACTCTCTGGGACTGTGCTAG | 0.158 z-score
GTCTCTGTTCTTTTCAGTCCGTGCTAG | 2.54 z-score
GACGATTTCAGTTCCGAGGCGTGCTAG | 2.73 z-score
TCATTTATCCCTGACAGACTGTGCTAG | 1.7 z-score

Set 2
Target: RNA binding protein fox-1 homolog 2, RRM domain, GST-SBP tag (RBFOX2, Homo sapiens, UniProt O43251-10, residues 100-194)
Technique: RNA Bind-n-Seq
Molecule type: RNA
Sample: in vitro
Tested at: 365 nM
Notes: natural RNA segment, single round, ends assumed
Baseline: no-protein control
Direction: higher = stronger binding
Constant ends, left off below: GGGAGUUCUACAGUCCGACGAUC … UGGAAUUCUCGGGUGCCAA
Target sequence (chain): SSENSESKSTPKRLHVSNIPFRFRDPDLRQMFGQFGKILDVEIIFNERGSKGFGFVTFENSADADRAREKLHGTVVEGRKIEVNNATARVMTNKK
Strand | RBNS enrichment (R)
AUGUAUCUUCACGUUGUAAAUAUGUUUUGUAGAGUGAAGCCAUGGGAAGCCAUGUGUAACAGAGCUUAGACAUCUGAAACUAAUCAAUGCUGAGGUGGCUAAAUACCUAG | 0.34
ACUCUGCCUGACGAGGAACGCUGGCUCCGAAGAGGCCCUGUGUAGAAGGCUGUCAGCUGCUCAGCCUGCUUUGAGCCUCAGUGAGAAGUCCUUCCGACAGGAGCUGACUC | 0.368
UCCUCUUUCAUAUAAAUAAGAAGUGGAAAUUGCCUUUUUAUUGUGUAAUGUAGAAAACCCUCAAGUGUUUUUUCCGAGCUUGGGAAAGAUUUUGUGUAGGAAAUGUGCAU | 0.938
CAGCUGCGUCCCGGAAACCAAGGUGGUGGGGACUCCCUGUGCCACCUCAUGCCACCCACUGGCUGGAGGGAAGGAGGGCAUGUAUCCGAUUAGAAUAGUCAAGUGGAUUA | 0.476
UGCAUGGAACAGGUCUGCCUAUGUGUAGUGUGGGUGUCCACUUCAGCCUAGUGUAGAGGACCUCUCGAAGACAUGCCCAGGGGUUUUUUUCCAGUGAGGUUGUAGACCCU | 0.907
GCGAGUCAGAACCAGCAUGGAGUGUUUCUGCUGAUUUCUGUCCCUGCAUCUCCCCUGGCCCCGUUCCCUGCCCUCCUCCCUUCCCUGGGUGACUGCUCUGAGAGGCACUU | 2.14
AGUGAUCCUCCCACCUCAGCCUCCUGAGUAGCUGGGACCAUAGGCUCACAACACCACACCUGGCAAAUUUGAUUUUUUUUUUUUUUCCAGAGACGGGGUCUCGCAACAUU | 0.299
ACCUGUCUACCUGAGGAGCUCCAGAGCUUCCCCAGAUGCUGGCUAUGCCUUGGCACUGACACCGUCCUGGCGCUGCCCAAGGCUAUACCUGUGUAGCCCUUUGGAUUCAG | 0.218

Set 3
Target: RING finger protein unkempt homolog, zinc fingers 1-6, GST-SBP tag (UNK, Homo sapiens, UniProt Q9C0B0, residues 30-357)
Technique: RNA Bind-n-Seq
Molecule type: RNA
Sample: in vitro
Tested at: not given
Notes: RNA with constant flanks, ends assumed
Baseline: input RNA pool
Direction: higher = stronger binding
Constant ends, left off below: GGGAGUUCUACAGUCCGACGAUC … CAACAGAGGAUUGAGCAUCA
Target sequence (chain): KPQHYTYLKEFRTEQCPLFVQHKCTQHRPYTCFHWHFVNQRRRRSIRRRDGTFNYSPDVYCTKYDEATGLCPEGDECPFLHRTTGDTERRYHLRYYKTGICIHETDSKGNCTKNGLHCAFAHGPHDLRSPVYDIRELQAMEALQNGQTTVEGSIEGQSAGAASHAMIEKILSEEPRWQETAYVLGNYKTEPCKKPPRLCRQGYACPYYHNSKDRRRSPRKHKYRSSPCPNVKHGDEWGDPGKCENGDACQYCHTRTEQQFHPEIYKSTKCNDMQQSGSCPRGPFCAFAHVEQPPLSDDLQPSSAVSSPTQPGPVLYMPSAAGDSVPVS
Strand | bound/input enrichment [ratio]
GAAACUAUUCCUAAAGAGGAGAAAGCUGAAAAGGAAGCUCGGAGAUCAUCUCUUGAGAAACACCGAAAAGAAAAGCCUUUUAAAACCGGGAGAGGCAGAAUUUCCACUCCUGAAAGAAAA | 0.136
UGUAGUUUCUUGAUUUAUCAUUUUUCUCUUUUCUUUCUUUCCUUUAGGAAAAGCCUAAAGAUCCGGUUGUAAGAAAAACAGAAGCCAUGUUUCGAAGACCUGUGUUACAGGUAUUUCGUC | 0.159
UCAAGAAGCAUCGUGUCUGGCGUUGUGGGGAUGAACUUUUUGUUUUGUUUCUUCCUUUUUCCGUUCUUCAAAGAUAGGGAGGGAAGGGGGAACAUGAGCCUUUGUUGCUAUCAAUCCAAG | 0.123
UCUCCAGAGCAUAAAGAACUAUCUCAUUCUCCCCCAAGGGAGAAUAGCUUUGAGUCAUCUUCCGAGUUUAAAAACUCAGGCCCUGUUUCAGAAGUAAAUACUGGCUUUUCUCCUGAGGUU | 0.119
UUCCUAAUAGAUACUAGAUUGUAUUGAAUUCUGUUUUAAUUAUUCUCUAGGUAAGUAUGUUUCCGGAUUAAAUACCUUUUACAGAUACUGAAAGUGCCUCCUUUUGUGGUGUAAAAAACA | 1.4
UUCUGGGGAUAUAAUUCAGGUUGAUGAAAAAACUGUAGGAGAGCCUGGUUGGCUUUAUGGCCGUUUUCAGGGAAAGUUUGGCUGGUUCCCGUGCAACUAUGUAGAAAAAGUGCUGUCAAG | 0.447
GUAUACGGUUAUCGAGGAAAGGACUGUAGAGCGAAUGUAUACCUGCUUCCCACAGGGGAGACCGUUUAUUUUAUCGCCUCAGUGGUAGUCCUGUUUAAUUAUGAGGAGAGGACUCAGCGA | 0.249
CCUGGGACUUUGGUUCAGUGCUUGAGGCUGCCAAAGUUUGCAGAGGAGGAGAAUCUUUGUACCGACUCAAUAACUCCUUGUGCUGACGGAAUUCAUUUGUUGGUAGGACUGCGGACAUGC | 0.0925

Set 4
Target: Runt-related transcription factor 1, full length (RUNX1, Homo sapiens, UniProt Q01196-8, residues 1-480)
Technique: protein-binding microarray
Molecule type: hairpin DNA
Sample: in vitro
Tested at: not given
Notes: whole hairpin DNA, median over replicate spots
Baseline: not given
Direction: higher = stronger binding
Strand | median fluorescence
GAGGCCCGTTGCGGTTGGCCTCCTGGCCAACCGCAACGGGCCTCACACTC | 6320 a.u.
CTCAGTCGTGTGGGCTGGACTCCTGTCCAGCCCACACGACTGAGACACTC (5mC at 7 37) | 1900 a.u.
GAGGCCTGTTGCGCGTGGCCTCCTGGCCACGCGCAACAGGCCTCACACTC (5mC at 14) | 1830 a.u.
GAGGCCTGCTGTGGTTGGCCTCCTGGCCAACCACAGCAGGCCTCACACTC | 2550 a.u.
GAGGCCTGTCGCGGTCGGCCTCCTGGCCGACCGCGACAGGCCTCACACTC (5mC at 28) | 2510 a.u.
GAGGCCTGTCGCGGTTGGCCTCCTGGCCAACCGCGACAGGCCTCACACTC (5mC at 44) | 2750 a.u.
GAGGCCCAACCGCAACAGCCTCCTGGCTGTTGCGGTTGGGCCTCACACTC (5mC at 13) | 6660 a.u.
CTCAGTTCTGTGGCCTGGACTCCTGTCCAGGCCACAGAACTGAGACACTC (5mC at 14) | 1890 a.u.
GAGGCCTGTCGCGCTTGGCCTCCTGGCCAAGCGCGACAGGCCTCACACTC (5mC at 14) | 1650 a.u.
GAGGCCTGTTGCGGCGGGCCTCCTGGCCCGCCGCAACAGGCCTCACACTC (5mC at 15) | 2420 a.u.
GAGGCCCAATCGCAACAGCCTCCTGGCTGTTGCGATTGGGCCTCACACTC | 1740 a.u.
GAGGCCGGTTGCGGTTGGCCTCCTGGCCAACCGCAACCGGCCTCACACTC | 7390 a.u.
CTCAGTTCTGTGGGCTAGACTCCTGTCTAGCCCACAGAACTGAGACACTC | 1980 a.u.
GAGGCCTGTCGCGGTTGGCCTCCTGGCCAACCGCGACAGGCCTCACACTC (5mC at 42) | 2690 a.u.
GAGGCCCACGCGCAACAGCCTCCTGGCTGTTGCGCGTGGGCCTCACACTC (5mC at 9 35) | 1800 a.u.
GAGGCCCAACCGCACCAGCCTCCTGGCTGGTGCGGTTGGGCCTCACACTC | 3390 a.u.
GAGGCCCAACCCCAACAGCCTCCTGGCTGTTGGGGTTGGGCCTCACACTC | 2110 a.u.
GAGGCCTGTCGCGCGTGGCCTCCTGGCCACGCGCGACAGGCCTCACACTC (5mC at 14 30) | 1990 a.u.
GAGGCCCAACCGGAACAGCCTCCTGGCTGTTCCGGTTGGGCCTCACACTC | 1780 a.u.
GAGGCCCAACCGCAACCGCCTCCTGGCGGTTGCGGTTGGGCCTCACACTC | 6540 a.u.
CTCAGTTCTCGGGGCTGGACTCCTGTCCAGCCCCGAGAACTGAGACACTC | 1720 a.u.
GAGGCCTGTTGTAGTTGGCCTCCTGGCCAACTACAACAGGCCTCACACTC | 1670 a.u.

Repeated from above (set 4):
Strand | median fluorescence
GAGGCCTGTCGCGGTTGGCCTCCTGGCCAACCGCGACAGGCCTCACACTC (5mC at 44) | 2750 a.u.
GAGGCCCAACCCCAACAGCCTCCTGGCTGTTGGGGTTGGGCCTCACACTC | 2110 a.u.
GAGGCCCAACCGGAACAGCCTCCTGGCTGTTCCGGTTGGGCCTCACACTC | 1780 a.u.
GAGGCCCAACCGCAACCGCCTCCTGGCGGTTGCGGTTGGGCCTCACACTC | 6540 a.u.
GAGGCCTGCTGTGGTTGGCCTCCTGGCCAACCACAGCAGGCCTCACACTC | 2550 a.u.
GAGGCCTGTCGCGCGTGGCCTCCTGGCCACGCGCGACAGGCCTCACACTC (5mC at 14 30) | 1990 a.u.
GAGGCCTGTTGTAGTTGGCCTCCTGGCCAACTACAACAGGCCTCACACTC | 1670 a.u.
CTCAGTTCTGTGGGCTAGACTCCTGTCTAGCCCACAGAACTGAGACACTC | 1980 a.u.
GAGGCCCACGCGCAACAGCCTCCTGGCTGTTGCGCGTGGGCCTCACACTC (5mC at 9 35) | 1800 a.u.
